Experimental data of several laboratories.
Lines come from different studies, so protocols differ. ± marks the error that the study gave.
Slc6a3: Sodium-dependent dopamine transporter (Slc6a3, Rattus norvegicus, UniProt P23977)
HRH3: Histamine H3 receptor (HRH3, Homo sapiens, UniProt Q9Y5N1)
ADRA2C: Alpha-2C adrenergic receptor (ADRA2C, Homo sapiens, UniProt P18825)

The selectivity ratio of `CNC(C)Cc1ccc2occc2c1` (centres unmarked) is reported as 0.58 (Slc6a3; [3H]MPP+ release, releaser; rat brain synaptosomes; reference: DAT over NET, higher = more DAT-selective).
The selectivity ratio of `CNC(C)C(=O)c1ccccc1` (centres unmarked) is reported as 309 (Slc6a3; substrate release; rat brain synaptosomes; reference: SERT EC50 over target EC50).
For `NC(=O)OC[C@H](N)Cc1ccccc1`, Kb read “inactive” (HRH3; antagonist; membranes expressing H3 receptor; with: (R)-α-methylhistamine 1 µM).
For `CN[C@@](C)(C[18F])C(=O)O`, the tracer uptake was 0.9 %ID/g (DU-145 tumour model; host not given, muscle; 2 h, tumour-bearing).
`C[C@H](N)Cc1ccccc1` — result for Kb: “inactive” (HRH3; antagonist; membranes expressing H3 receptor; with: (R)-α-methylhistamine 1 µM).
For `CCCC(C)(COC(N)=O)COC(=O)NC(C)C` (centres unmarked), the efficacy was 200 ± 9.5% (Gamma-aminobutyric acid receptor subunit alpha-1/beta-3/gamma-2 (Rattus norvegicus, UniProt P18508+P62813+P63079); ion current, positive modulator, whole-cell patch clamp; HEK293; with: GABA EC20; reference: GABA EC20 response).
For `NC(=O)[C@H](Cc1ccccc1)NC(=O)c1nn(Cc2ccc(F)cc2)c2ccccc12`, the Emax was 115 ± 2% (CNR1 (Homo sapiens, UniProt P21554); calcium mobilization, agonist; CHO-K1 expressing Gαq16; reference: CP55,940 maximum).
For `O=[As][O-].[Na+]`, the koff was 0.0004 ± 0.0002 s⁻¹ (Arsenical resistance operon trans-acting repressor ArsD, residues 1-109 (arsD, Escherichia coli, UniProt P46003, V17W/W35Y/W97Y); fluorescence quenching; no added thiols).
`C[C@H]1N=C(c2ccccc2F)c2cc(Br)ccc2NC1=O` has an inhibition of 1% (ADRA2C; ligand displacement, radioligand; 10 µM).
`N[C@H]1[C@@H](O[C@@H]2[C@H](O)[C@H](O)[C@@H](O)[C@H](O)[C@H]2O)O[C@H](CO)[C@@H](O)[C@@H]1O` has an apparent Vmax of 83 ± 10 nmol/min/mg (L-cysteine:1D-myo-inositol 2-amino-2-deoxy-alpha-D-glucopyranoside ligase (Mycobacterium tuberculosis, UniProt P9WJM9); enzyme activity; substrate varied, others saturating).
`C[C@]12CCC(=O)CC1=CC[C@@H]1[C@@H]2CC[C@]2(C)C(=O)CC[C@@H]12` has a Km of 63.2 µM (HSD3B1 (Homo sapiens, UniProt P14060, R196P); substrate).
For `C[n+]1ccc(-c2ccccc2)cc1`, the Vmax was 0.23 ± 0.02 nmol/mg protein/min (SLC29A4 (Homo sapiens, UniProt Q7RTT9, I89M); substrate, radiolabelled uptake; MDCK expressing YFP-tagged I89M SLC29A4; 1 min, 37 °C, vector background subtracted).
`CC[C@H]1C[C@H]2C[C@H]3c4[nH]c5ccc(O)cc5c4CCN(C2)[C@@H]13` gave a potency ratio of over 50 fold (Slc6a4 (Mus musculus, UniProt Q60857); transporter function, inhibitor, two-photon imaging; acute mouse brain slices; reference: axonal over somato-dendritic regions).
For `N[C@@H](Cc1c[nH]c2ccccc12)C(=O)O`, the Km was 2200 ± 100 µM (Tryptophan decarboxylase (Clostridium sporogenes, UniProt J7SZ64); decarboxylation, substrate, HPLC; Clostridium sporogenes, crude extract; pH 7.0, 37 °C).
`CC(C)[C@@H]1NC(=O)[C@@H]2CSSC[C@H](NC(=O)[C@@H](N)CCCCN)C(=O)N[C@@H](CCCNC(=N)N)C(=O)N[C@@H](CCC(=O)O)C(=O)N[C@H]3CSSC[C@H](NC(=O)[C@H](CCCCN)NC(=O)CNC(=O)[C@H](CC(N)=O)NC1=O)C(=O)N[C@@H](C(C)C)C(=O)N[C@H](C(=O)N1CCC[C@H]1C(=O)N[C@@H](C)C(=O)O)CSSC[C@H](NC(=O)[C@H](CO)NC(=O)[C@@H]1CCCN1C(=O)[C@H](CO)NC(=O)[C@H]([C@@H](C)O)NC(=O)[C@H](CC(N)=O)NC(=O)CNC3=O)C(=O)N[C@@H](Cc1ccc(O)cc1)C(=O)N[C@@H](Cc1ccccc1)C(=O)N[C@@H](CO)C(=O)NCC(=O)N[C@@H](CC(N)=O)C(=O)N2` — result for “activation threshold voltage”: about -40 mV (KCNA3 (Homo sapiens, UniProt P22001); whole-cell patch clamp, voltage ramp; activated human T lymphocytes; 2 nM, 200 ms ramp, equilibrium block).
`CC(N)Cc1ccc2c(c1)OCO2` (racemic) gave a selectivity ratio of 1.53 (Slc6a3; [3H]MPP+ release, releaser; rat brain synaptosomes; reference: DAT over SERT, higher = more DAT-selective).
`CC(=CCCC(C)=CCSP(=O)(O)OP(=O)(O)O)CCC=C(C)CCCN(C)C` gave an IC50 of 0.1 nM (Type B diterpene cyclase (Mycobacterium tuberculosis, UniProt O50406); enzyme activity, inhibitor, measured: HPP from GGPP).
`CNC(C)Cc1ccc2ccoc2c1` (centres unmarked) has a selectivity ratio of 0.7 (Slc6a3; [3H]MPP+ release, releaser; rat brain synaptosomes; reference: DAT over NET, higher = more DAT-selective).
For `CC1N=C(c2ccccc2F)c2cc(NC3CCCCC3)ccc2NC1=O` (centres unmarked), the inhibition was 80% (ADRA2C; ligand displacement, radioligand; 10 µM).
The selectivity ratio of `CC(N)Cc1ccc2ccoc2c1` (centres unmarked) is reported as 1.4 (Slc6a3; [3H]MPP+ release, releaser; rat brain synaptosomes; reference: DAT over NET, higher = more DAT-selective).
`Nc1ncnc2c1ncn2[C@@H]1O[C@H](COP(=O)(O)OP(=O)(O)OP(O)(O)=S)[C@@H](O)[C@H]1O` has a fold change of 7 fold (Tryptophan--tRNA ligase (Mycobacterium tuberculosis, UniProt P9WFT3); ATP probe labelling, competitor, chemoproteomics; Mycobacterium tuberculosis, lysate; 500 µM; reference: untreated).
`CNC(C)Cc1ccc2c(c1)OCO2` (racemic) has a selectivity ratio of 0.71 (Slc6a3; [3H]MPP+ release, releaser; rat brain synaptosomes; reference: DAT over SERT, higher = more DAT-selective).
Under EC50, `O=C1NC(=S)NC(=O)C1=Cc1ccc(/N=N/c2ccccc2)cc1` is recorded as “inactive” (Peroxisome proliferator-activated receptor gamma, ligand-binding domain (PPARG, Homo sapiens, UniProt P37231); reporter gene, agonist; HEK293T; up to 10 µM, trans isomer, dark).

For quick reference, copied from above:
For `C[n+]1ccc(-c2ccccc2)cc1`, the Vmax was 0.23 ± 0.02 nmol/mg protein/min (SLC29A4 (Homo sapiens, UniProt Q7RTT9, I89M); substrate, radiolabelled uptake; MDCK expressing YFP-tagged I89M SLC29A4; 1 min, 37 °C, vector background subtracted).
`CC[C@H]1C[C@H]2C[C@H]3c4[nH]c5ccc(O)cc5c4CCN(C2)[C@@H]13` gave a potency ratio of over 50 fold (Slc6a4 (Mus musculus, UniProt Q60857); transporter function, inhibitor, two-photon imaging; acute mouse brain slices; reference: axonal over somato-dendritic regions).
